Results of several laboratories.
Each line is one published result; not all experiments were run side by side. Several values in a cell are separate wells, animals, samples, runs or records. ± marks the error that the study gave.

COc1c(C)c(OS(=O)(=O)c2ccccc2)c(C)c(O)c1C(=O)/C=C/c1ccccc1 — selectivity index (SH-SY5Y; SRB; baseline: normal over SH-SY5Y IC50): 1.42
COc1ccccc1-c1ccncc1C(=O)Nc1ccc(OCc2ccc(Cl)cc2)nn1 — colony survival (DLD-1 BRCA2-/-; 10 µM, mean of 3 replicates; baseline: untreated): 99.3%
COC(=O)c1cc(NC2=NC(=O)C(=Cc3ccc(C)cc3)S2)ccc1OC(C)=O — metabolite level (MCF7; GC-MS, item: Myo-Inositol; 1 µM; baseline: DMSO): 0.26 fold change
CC(C)c1ccc(N(C)c2ccc3c(c2)OCC[C@H]3CNc2cnccc2C(=O)O)cc1 — IC50 (HCC2935; cell growth or viability, ATP luminescence; 7 days): ≥ 10000 nM
Nc1ncc(-c2cc(-c3cnn(CC(F)(F)F)c3)ncc2F)nc1C(=O)NC1CNCC(F)C1 (stereo not drawn) — CHK2 phosphorylation (TNBC cells; Western blot; concentration not given): decreased
COc1ccc2c(c1)OC1=C(C(=O)CCC1)C2c1c[nH]c2ccccc12 (stereo not drawn) — mRNA level (mouse preadipocytes; qPCR, item: aP2; IC20, 14 days, adipogenic induction; baseline: untreated cells): decreased
CCN(CC)CC(=O)Nc1cccc(-n2cc(-c3ccc4ccc(-c5cn(-c6cccc(NC(=O)CN(CC)CC)c6)nn5)cc4c3)nn2)c1 — fold regulation (RCC4; PCR angiogenesis array, item: PGF; 5 x IC50, 4 h, normoxia; baseline: untreated): -2.23
CCCC(=O)N1CCN(c2ccc(NC(=O)c3ccc([N+](=O)[O-])o3)cc2Cl)CC1 — efficacy (LDR; silenced CMV-GFP reporter derepression, qHTS): 68%
CCNc1cc2c(cc1C)C1(c3cc(C)c(NCC)cc3O2)c2ccccc2C(=O)N1N=Cc1c[c-]c(-c2ccccn2)cc1.Cc1c(C)c(-c2ccc(-c3ccccc3)cc2)[c-](C)c1C.[Cl-].[Ir+3] — JC-1 monomer cells (A549; mitochondrial membrane potential loss, JC-1 flow cytometry; 1.0 x IC50, 24 h): 3.76 ± 0.4%
Cc1ccncc1.[Cl-].[Cl-].[Ru+2].c1cc(-c2ccc3cccnc3n2)nc(-c2ccc3cccnc3n2)c1.c1ccc2cc3nc4c5cccnc5c5ncccc5c4nc3cc2c1 — phototherapeutic index (SK-MEL-28; light 633 nm, oxygen 1%; baseline: dark EC50 over light EC50): 1
COc1ccc(NC(=O)C2CCCN(c3ncnc4[nH]c(-c5ccc(NC6CCN(C)CC6)cc5C)cc34)C2)cc1 (stereo not drawn) — inhibition (NCI-H2228; cell growth or viability, MTT; 1 µg/mL, 72 h): 73.3%
COC(=O)c1cc(NC2=NC(=O)C(=Cc3ccc(N(C)C)cc3)S2)ccc1OC(C)=O — mRNA level (A549; item: TGFB1; 2.93 µM, 24 h; baseline: DMSO): 101 fold change
COc1ccc(-c2cc3c(N4CCC[C@H](C(=O)NCc5ccc(OC(F)(F)F)cc5)C4)ncnc3[nH]2)cn1 — inhibition (NCI-H2228; cell growth or viability, MTT; 0.04 µg/mL, 72 h): 21%
CSC(=S)N/N=C(\C)c1ccc(Nc2nnc(-c3ccc(Cl)cc3)c3ccccc23)cc1 — viability (MCF7; cell growth or viability, MTT; 5 µM, 24 h): 5.8%
Cc1noc(C)c1-c1cc2c(N3CCC[C@H](C(=O)NCc4ccc(OC(F)(F)F)cc4)C3)ncnc2[nH]1 — inhibition (NCI-H2228; cell growth or viability, MTT; 0.04 µg/mL, 72 h): 31.6%
CO[C@@H]1[C@@H](OC(N)=O)[C@@H](O)[C@H](Oc2ccc3c(O)c(NC(=O)c4ccc(O)c(CC=C(C)C)c4)c(=O)oc3c2C)OC1(C)C — colony count (DLD-1 BRCA2-/-; 75 µM, replicate 1): 1.5
Cc1ccc(-n2cc(CSc3nc4ccccc4n3Cc3cn(-c4ccc(C)cc4)nn3)nn2)cc1 — viability (Caco-2; MTT; 500 ppm): 9.68%
CN1CCCNC(=O)c2cccc(c2)C(=O)NCCCN(C)CCCNc2cccc3c2C(=O)c2cccc(c2C3=O)NCCC1 — log2 fold change (SAS; RNA-Seq, item: OARD1 mRNA; 1 µM, 6 h; baseline: untreated cells): 1.34
CCC(=CCc1c(O)cc2c(c1O)C(=O)CC(c1ccc(O)cc1)O2)CC (stereo not drawn) — early apoptotic cells (HeLa; annexin V/PI; 12 µM, 48 h): 0.22 ± 0.02%
O=C(C[Se]C(=O)c1cc2ccccc2[nH]1)Nc1cccc(C(F)(F)F)c1 — GI50 (NCI60 renal subpanel; cell growth, inhibitor; five-dose): 1690 nM
Cn1cc(-c2cc3c(N4CCC[C@H](C(=O)NCc5ccc(OC(F)(F)F)cc5)C4)ncnc3[nH]2)cn1 — inhibition (NCI-H2228; cell growth or viability, MTT; 0.2 µg/mL, 72 h): 62.8%
CCN(C(=O)c1cc(F)ccc1Oc1nncnc1N1CCC2(C1)CN([C@H](CCCN(C)CCOC)C(C)C)C2)C(C)C — GI50 (SU-DHL10; cell growth or viability; 72 h): > 10000 nM
CC1=C/C(=N\N=C(/S)Nc2cccnc2)CC(C)(C)C1 — Emax (LDR; silenced CMV-GFP reporter derepression, qHTS): 211%
CNS(=O)(=O)Nc1nccc(Cc2c(C)c3ccc(Oc4ncccc4F)cc3oc2=O)c1F — IC50 (NCI-H1395; cell viability, CellTiter-Glo; 7 days): > 1000 nM
Cn1ncc2cc(-c3cncc(Cl)c3N3CCC4(CCNC4=O)CC3)ccc21 — log2 fold change (LS174T; gene expression, microarray, item: CYP27B1 mRNA; concentration not given, 24 h; baseline: untreated cells): -2.22
Cc1ncsc1-c1ccc(C(C)NC(=O)C2CC(O)CN2C(=O)C(NC(=O)CCCCCCCCCCN2CCCC(Nc3ncc(Cl)c(Nc4ccccc4S(=O)(=O)C(C)C)n3)C2)C(C)(C)C)cc1 (stereo not drawn) — log2 fold change (22Rv1; RNA-seq, item: STARD13 mRNA; concentration not given; baseline: DMSO): -2.93
COc1ccccc1-c1ccncc1C(=O)Nc1nnc(OCc2ccc(Cl)cc2)s1 — colony survival (MDA-MB-436 BRCA1-mutant; colony formation; 1.5 µM; baseline: vehicle (DMSO)): 52.4%
CCC(=O)N1CCN(c2ccc(NC(=O)c3ccc([N+](=O)[O-])o3)cc2Cl)CC1 — EC50 (LDR; silenced CMV-GFP reporter derepression, qHTS): 1580 nM
Cc1n[nH]c(C)c1-c1cc2c(N3CCC[C@H](C(=O)NCc4ccc(OC(F)(F)F)cc4)C3)ncnc2[nH]1 — inhibition (NCI-H2228; cell growth or viability, MTT; 5 µg/mL, 72 h): 78.8%
O=C(C[Se]C(=O)c1cccnc1Nc1cccc(C(F)(F)F)c1)Nc1cccc(C(F)(F)F)c1 — GI50 (NCI60 NSCLC subpanel; NCI60 five-dose screen): 1740 nM
Cc1cc(NC2CCN(C)CC2)ccc1-c1cc2c(N3CCC[C@H](C(=O)N4CCCC4)C3)ncnc2[nH]1 — inhibition (NCI-H2228; cell growth or viability, MTT; 0.008 µg/mL, 72 h): 7.34%
COc1ccc(NC(=O)c2ccc3[nH]c(-c4ccc(N(C)C)cc4)nc3c2)cn1 — reporter activity (HCT-116; item: CXCL1 luciferase reporter; concentration not given, unit not given; baseline: DMSO): 4.67 and 3.15 and 3.29
Cc1sc2c(c1C)C(c1ccc(Cl)cc1)=N[C@@H](CC(=O)NCC(=O)N1CCC3(CCC(C(=O)N4CCN(C(=O)c5cc(Cc6n[nH]c(=O)c7ccccc67)ccc5F)CC4)CC3)CC1)c1nnc(C)n1-2 — cells in G1 phase (NCI-H82; 100 nM, 24 h): 11%
COC(=O)[C@H](C)NC(=O)[C@H](C)NC(=O)c1csc(-c2cccnc2)n1 — EC50 (PC3-TxR; cell growth or viability): > 30000 nM
O=C(C[Se]C(=O)c1cc2ccccc2s1)Nc1cccc(C(F)(F)F)c1 — mean growth percent (NCI60 renal subpanel; cell growth; 10 µM, 48 h, one-dose): -78.5%
COc1cc(-c2cc3c(N4CCC[C@H](C(=O)NCc5ccc(OC(F)(F)F)cc5)C4)ncnc3[nH]2)cc(OC)c1OC — inhibition (NCI-H2228; cell growth or viability, MTT; 0.008 µg/mL, 72 h): 9.6%
CCCCCCCCCCCC(=O)N[C@H](CO)C[C@@H](O)c1ccccc1 — sphingomyelin level (HeLa; CERT activity, HPLC-MS/MS lipidomics, item: sphingomyelin 24; 1 µM, 24 h, not cell-number normalised): 88300 pmol/sample and 80000 pmol/sample and 79500 pmol/sample
O=C(NCc1ccc(OC(F)(F)F)cc1)[C@H]1CCCN(c2ncnc3[nH]c(-c4ccncc4)cc23)C1 — inhibition (NCI-H2228; cell growth or viability, MTT; 1 µg/mL, 72 h): 72%
CC(C)Cc1ccc(C(C)C(=O)[Se]CC(=O)Nc2cccc(C(F)(F)F)c2)cc1 (stereo not drawn) — GI50 (NCI60 renal subpanel; cell growth, inhibitor; five-dose): 1960 nM
O=C(NN1C(=O)c2ccccc2NC1c1ccc([N+](=O)[O-])o1)c1ccc([N+](=O)[O-])cc1 (stereo not drawn) — efficacy (LDR; silenced CMV-GFP reporter derepression, qHTS): 113%
O=C(C[Se]C(=O)c1cc2ccccc2o1)Nc1cccc(C(F)(F)F)c1 — GI50 (NCI60 renal subpanel; cell growth, inhibitor; five-dose): 1750 nM
COc1ccc2c(C)nc(Nc3nc(O)cc(-c4ccccc4)n3)nc2c1 — Emax (LDR; silenced CMV-GFP reporter derepression, qHTS): 76%
